# Published values collected from several papers.
# Compare with care: the assays were run in different laboratories. Values joined by “and” are separate records of one study, mostly repeats; a detail may differ. ± gives the spread as reported.
SMILES,test,test system,setting,how to read,measurement,result
CC(C)NCC(O)c1ccc(O)c(O)c1 (stereo not drawn),,"ventricular cardiomyocytes, C57BL/6 mouse","dose not given, 0.064 s",,sarcomere length,1.72 µm
COc1cc(-c2ccccc2)ncc1C(=O)Nc1ccc2c(=O)[nH]c(-c3ccc(C(C)(C)O)cc3)nc2c1,"RNA-seq GSEA, refers to: HALLMARK_UNFOLDED_PROTEIN_RESPONSE","organoids, small intestinal, Apc Q1405X, mouse","dose not given, knockout organoids","relative to: DMSO, direction not given",normalized enrichment score,-1.78
COc1cc(Nc2ncc3c(n2)-c2ccc(Cl)cc2C(c2c(F)cccc2OC)=NC3)ccc1C(=O)O,,"mouse, NB-EBc1 neuroblastoma xenograft",20.8 mg/kg,direction not given,median response score,10
CC(c1cc2ccccc2s1)N(O)C(N)=O (stereo not drawn),refers to: 5-HEPE,human whole blood,"3 µM, added: Escherichia coli",,amount,42 ± 14 pg/mL blood
C[C@H]1O[C@@H](O[C@H]2CC[C@@]3(C)[C@@H](CC[C@]4(C)[C@@H]3C=C[C@]35OC[C@@]6(CCC(C)(C)C[C@H]63)[C@@H](O)C[C@]54C)[C@]2(C)CO)[C@H](O)[C@@H](O[C@@H]2O[C@H](CO)[C@@H](O)[C@H](O)[C@H]2O)[C@H]1O,"Western blot, refers to: PPARα","chronic-plus-binge ethanol-fed mice, liver","dose not given, low dose, unit not given",relative to: β-actin,protein level,0.664 and 1.05 and 1.2
C[C@H]1C[C@H]2CSC(N)=N[C@@]2(c2nc(NC(=O)c3ccc(OC(F)F)cn3)cs2)CO1,refers to: total Aβ,"healthy adults, plasma","5 mg once daily, day 7",relative to: placebo,percent change from baseline,-35.6%
FC(F)(F)Oc1cccc(-c2cnc3ccc(-c4ccncc4)nn23)c1,bioluminescence,"mouse, MDA-MB-231-Luc xenograft","30 mg/kg, day 14",,tumour growth,185% and 337% and 199% and 232% and 130%
NC(=O)c1cnc2[nH]ccc2c1N[C@@H]1[C@@H]2CC3C[C@H]1C[C@@](O)(C3)C2,flow cytometry,"Japanese healthy men, blood","oral, 30 mg twice daily, 72 h after day 7 dose",relative to: baseline,total memory T-cell change,-0.42%
CN(C(=O)n1cnc(-c2ccc[n+]([O-])c2)c1)C1CCCCC1,,"mice, formalin paw test","3 mg/kg, late phase, added: anandamide 5 mg/kg i.p.","relative to: vehicle, direction not given",change in licking score,-91%
Cc1nn(-c2nc3c(F)cc(F)cc3s2)c(O)c1C(c1ccc(C(F)(F)F)cc1)c1c(C)nn(-c2nc3c(F)cc(F)cc3s2)c1O,refers to: fat necrosis,"mouse, cerulein-induced acute pancreatitis",25 mg/kg,direction not given,histology score,0
OC[C@H]1OC(O)[C@H]([18F])[C@@H](O)[C@@H]1O (stereo partly drawn),PET,"NSCLC and melanoma patients, primary tumours","dose not given, median of five patients",,SUVmean,4.82
Cn1cc([C@H]2C[C@H]3CSC(N)=N[C@@]3(c3ccc(F)cc3F)CO2)cn1,refers to: Aβx-40,"wild-type mouse, brain","subcutaneous, 50 mg/kg, 18 h",,brain Aβ40 level,2.63 ng/g
CC(C)(O)c1cnc2ncc(-c3ccc(F)c(-c4c(F)cccc4C#N)c3)n2n1,"suppressed responding increase, conflict procedure",rhesus monkey,"intravenous, anxiolysis model",,minimum effective dose,≥ 0.1 mg/kg
N#Cc1ccc2c(c1)[C@H]1CCCN(C(=O)c3ccc4[nH]cnc4c3)[C@H]1C2,,human clinical trial,"oral, 240 mg once daily",,cortisol change from baseline,-3 nmol/L
COc1ccccc1[C@H](Cn1c(=O)n(C(C)(C)C(=O)O)c(=O)c2c(C)c(-c3ncco3)sc21)OC1CCOCC1,"[1-13C]acetate infusion, isotopomer analysis","overweight or obese healthy men, plasma VLDL-TG palmitate","oral, 20 mg single dose, 2 h post-dose, added: oral fructose",,fractional hepatic DNL,8.38 % new palmitate
CN(C)C(=O)c1cc2cnc(Nc3ccc(N4CCNCC4)cn3)nc2n1C1CCCC1,"RNA-seq GSEA, refers to: HALLMARK_NOTCH_SIGNALING",MB002 tumour,"concentration not given, in vivo","relative to: vehicle, direction not given",normalized enrichment score,0.983
C[C@@H](NC(=O)N1C(=O)[C@H](Cc2ccnc(N)c2)[C@H]1C(=O)O)C1CCCCC1,,"human, plasma","continuous intravenous infusion, 2.25 mg/kg/h, days 1 to 6 of 5-day infusion, median",,time to maximum prothrombin time,5 h
C[C@H](NC(=O)c1c(C(F)F)nn(C)c1Oc1cccc(C(F)(F)F)c1)c1ccc(C(=O)O)cc1,irRECIST,"human, advanced tumours",125 mg,best overall response,stable disease,25%
O=C(OC(C(F)(F)F)C(F)(F)F)N1CCN(Cc2cccc(Oc3ccccc3)c2)CC1,PET,"rhesus monkey, pons","intravenous, 0.03 mg/kg, pretreatment blocking, added: [18F]T-401",,tracer distribution volume,1.89 mL/cm3
c1ccc(-c2n[nH]cc2-c2ccnc3ccccc23)nc1,"kinase binding, competitor, MIB/MS competition, refers to: GIN4",Candida albicans cell lysate,10 µM,relative to: DMSO,log2 fold change,1.69
Cn1cc(Nc2nccc(-c3ccc4c(c3)CN(C3COC3)CC[C@H]4NC(=O)c3cn(C(C)(C)C)nn3)n2)cn1,refers to: Apelin pancreas signaling,"splenic B cells, mice","30 mg/kg, added: in vivo IgD activation","relative to: vehicle, direction not given",pathway activation z-score,1.13
O=c1cc(-c2ccccc2)oc2cc(O)c(O)c(O)c12,Oil Red O staining,ApoE-/- mouse on high-fat diet,"oral gavage, 20 doses every three days, 72 h",,aortic wall plaque area,6.5 ± 3.24%
O=C(O)CNC(=O)Cc1ccccc1,,"ventricular cardiomyocytes, C57BL/6 mouse","dose not given, 0.476 s",,sarcomere length,1.67 µm
C=CCn1c(=O)c2cnc(Nc3ccc(N4CCN(C)CC4)cc3)nc2n1-c1ccc2c(n1)[C@@](O)(CC)CC2,,"LNCaP xenograft, BALB/c nude mice","oral, 80 mg/kg once daily x 21, day 22",relative to: vehicle,tumour growth inhibition,56.1%
OC(CCN1CCCCC1)(c1ccccc1)C1CC2C=CC1C2 (stereo not drawn),resting-state EEG,healthy elderly humans,"oral, 4 mg, eyes closed, LS mean",,"EEG theta power, O2 Pz",7.1 µV²
N#Cc1ccc2c(c1)[C@H]1CCCN(C(=O)c3ccc4[nH]cnc4c3)[C@H]1C2,,"human, plasma","20 mg, day 15, 360 h",relative to: placebo and baseline,change in fasting insulin,-37.7%
NCC(=O)Nc1cncc(-c2nn3c(=O)cc(N4CCNCC4)nc3s2)c1,"ADP-induced platelet aggregation, light transmission aggregometry","human stable CAD patients on aspirin, platelets ex vivo","0.05 mg/kg, 180 min post dose, added: 20 µM ADP",relative to: placebo difference,inhibition of platelet aggregation,-2.68%
C[C@@H](O)CCOC(=O)C[C@@H](C)O,,human,"oral drink, dose not given, 30 min post dose, median, all participants",,plasma insulin,1460 pg/mL
N#Cc1ccc2c(-c3ccncc3)c(-c3ccc(F)cc3)nn2c1,"kinase binding, competitor, MIB/MS competition, refers to: YPK1",Candida albicans cell lysate,100 nM,relative to: DMSO,log2 fold change,0.106
CC(=O)Oc1cc2c(s1)CCN(C(C(=O)C1CC1)c1ccccc1F)C2 (stereo not drawn),"platelet aggregation, light transmission aggregometry","human patients, platelet-rich plasma","2 h, added: TRAP 5 µM",,patients with IPA above 90%,0%
COc1cc2cc(-c3ccc(CC(=O)Nc4cc(C(C)(C)C(F)(F)F)no4)cn3)cnc2cc1OC,RECIST v1.1,RET-altered advanced solid tumour patients,"oral, 150 mg once daily, phase I",,partial response as best response,25%
Cc1ccc(NC(=O)c2ccc(CN3CCN(C)CC3)cc2)cc1Nc1nccc(-c2cccnc2)n1,platelet aggregation,platelet-rich plasma,"0.1 µM, DMSO 130.6, added: collagen 2 mg/mL",,lag time,142 s
COC[C@@H](c1ccc(C(F)(F)F)cc1)N1CCN(C2(C)CCN(C(=O)c3c(C)ncnc3C)CC2)C[C@@H]1C,,"human, HIV infected","dose not given, week 2, Cmin >54 ng/mL",,HIV-1 RNA decrease,1.35 log10 copies/mL
CN[C@@H]1COc2c(S(=O)(=O)NC(=O)Nc3c4c(cc5c3CCC5)CCC4)cnn2C1,refers to: IL-18,"human participants, whole blood ex vivo","300 mg twice daily, multiple doses, 152 h, IL-18, circulating, adjusted for, added: LPS/ATP",relative to: baseline,inhibition,97.8%
C=C1CC[C@H](OCCCNC(=O)CCOCCOCCOCCOCCOCCOCCOCCOCCOCCOCCOCCOCCOCCOCCOCCOCCOCCOCCOCCOCCOCCOCCOCCOCCOCCOCCOCCOCCOCCOCCOCCOCCOCCOCCOCCOCCNC(=O)CCN2C(=O)CC(SC[C@H](NC(=O)[C@H](CCCNC(=N)N)NC(=O)[C@@H]3CCCN3C(=O)[C@H](CCC(N)=O)NC(=O)[C@H](CC(C)C)NC(=O)[C@H](CCCCN)NC(=O)[C@H](C)NC(=O)[C@@H]3CCCN3C(=O)[C@@H]3CCCN3C(=O)[C@H](CCCCN)NC(=O)[C@H](CCCCN)NC(=O)[C@H](CO)NC(=O)[C@H](CCC(=O)O)NC(=O)[C@H](CCCCN)NC(=O)[C@H](CCCNC(=N)N)NC(=O)[C@H](CCC(N)=O)NC(=O)[C@H](CCC(N)=O)NC(=O)[C@@H](NC(=O)[C@H](CCCNC(=N)N)NC(=O)[C@H](CCC(N)=O)NC(=O)[C@H](Cc3c[nH]cn3)NC(=O)[C@H](CCC(=O)O)NC(=O)[C@@H]3CCCN3C(=O)[C@H](CO)NC(=O)[C@H](CC(C)C)NC(=O)[C@H](Cc3ccccc3)NC(=O)[C@H](CNC(=O)CCCCCCC)NC(=O)[C@H](CO)NC(=O)CN)C(C)C)C(=O)O)C2=O)C/C1=C/C=C1\CCC[C@]2(C)[C@@H]([C@H](C)CCCC(C)(C)O)CC[C@@H]12 (stereo partly drawn),"immunohistochemistry, refers to: MyHC IIA, IIX, IIB fibres","mice, tibialis anterior",daily or every other day,,muscle fibre type percentage,no effect
Cc1n[nH]c2ccc(-c3cc(OC[C@@H](N)Cc4ccccc4)cnc3-c3ccoc3)cc12,"kinase binding, competitor, MIB/MS competition, refers to: KIN2",Candida albicans cell lysate,10 µM,relative to: DMSO,log2 fold change,-0.154
CN(C)C(=O)Oc1cccc([N+](C)(C)C)c1,neuromuscular block reversal,rat,"dose not given, 6.5 (unit not given), added: cisatracurium",relative to: T1 twitch,train-of-four ratio,48.1
C[C@H](Oc1ccc(Br)cc1-c1ccon1)C(=O)O,muscle velocity recovery cycles,"human, tibialis anterior muscle","200 mg once daily, multiple doses, frequency ramp, last response at 15 Hz",relative to: placebo,latency change,1.17%
CCCCCCCCCCCC1NCCc2cc(O)c(O)cc21 (stereo not drawn),ferrozine,cell-free,"100 µM, DMSO solvent",,Fe2+ chelation,22.9 ± 4.27%
C=CC[C@@H]1/C=C(\C)C[C@H](C)C[C@H](OC)[C@H]2O[C@@](O)(C(=O)C(=O)N3CCCC[C@H]3C(=O)O[C@H](/C(C)=C/[C@@H]3CC[C@@H](O)[C@H](OC)C3)[C@H](C)[C@@H](O)CC1=O)[C@H](C)C[C@@H]2OC,"qPCR, refers to: Egf","Wistar Kyoto rats, male, kidney cortex","ip, 0.5 mg/kg/day, day 28",relative to: vehicle,mRNA level,decreased
COc1ccc(C2NCCc3cc(O)c(O)cc32)cc1O (stereo not drawn),ferrozine,cell-free,"100 µM, DMSO solvent",,Fe2+ chelation,91.76 ± 0.34%
CCOC(=O)c1c(NC(=O)CNC(C)C)sc2c1CCCCC2,,APP J20 mice,"intraperitoneal, 75 mg/kg, first 2 h, NREM sleep",,epileptiform spike rate,58.2 ± 11.2 spikes/h

# A few entries again:
SMILES,test,test system,setting,how to read,measurement,result
c1ccc(-c2n[nH]cc2-c2ccnc3ccccc23)nc1,"kinase binding, competitor, MIB/MS competition, refers to: GIN4",Candida albicans cell lysate,10 µM,relative to: DMSO,log2 fold change,1.69
Cn1cc(Nc2nccc(-c3ccc4c(c3)CN(C3COC3)CC[C@H]4NC(=O)c3cn(C(C)(C)C)nn3)n2)cn1,refers to: Apelin pancreas signaling,"splenic B cells, mice","30 mg/kg, added: in vivo IgD activation","relative to: vehicle, direction not given",pathway activation z-score,1.13
O=c1cc(-c2ccccc2)oc2cc(O)c(O)c(O)c12,Oil Red O staining,ApoE-/- mouse on high-fat diet,"oral gavage, 20 doses every three days, 72 h",,aortic wall plaque area,6.5 ± 3.24%
O=C(O)CNC(=O)Cc1ccccc1,,"ventricular cardiomyocytes, C57BL/6 mouse","dose not given, 0.476 s",,sarcomere length,1.67 µm
C=CCn1c(=O)c2cnc(Nc3ccc(N4CCN(C)CC4)cc3)nc2n1-c1ccc2c(n1)[C@@](O)(CC)CC2,,"LNCaP xenograft, BALB/c nude mice","oral, 80 mg/kg once daily x 21, day 22",relative to: vehicle,tumour growth inhibition,56.1%
